Measurements pooled from the literature.
Each line is one published result; not all experiments were run side by side. Values joined by “and” are separate records of one study, mostly repeats; a detail may differ. pIC50: −log10 of the molar value.
CYP2E1: Cytochrome P450 2E1 (CYP2E1, Homo sapiens, UniProt P05181)
Sequence of UniProt P05181 (whole entry, looked up): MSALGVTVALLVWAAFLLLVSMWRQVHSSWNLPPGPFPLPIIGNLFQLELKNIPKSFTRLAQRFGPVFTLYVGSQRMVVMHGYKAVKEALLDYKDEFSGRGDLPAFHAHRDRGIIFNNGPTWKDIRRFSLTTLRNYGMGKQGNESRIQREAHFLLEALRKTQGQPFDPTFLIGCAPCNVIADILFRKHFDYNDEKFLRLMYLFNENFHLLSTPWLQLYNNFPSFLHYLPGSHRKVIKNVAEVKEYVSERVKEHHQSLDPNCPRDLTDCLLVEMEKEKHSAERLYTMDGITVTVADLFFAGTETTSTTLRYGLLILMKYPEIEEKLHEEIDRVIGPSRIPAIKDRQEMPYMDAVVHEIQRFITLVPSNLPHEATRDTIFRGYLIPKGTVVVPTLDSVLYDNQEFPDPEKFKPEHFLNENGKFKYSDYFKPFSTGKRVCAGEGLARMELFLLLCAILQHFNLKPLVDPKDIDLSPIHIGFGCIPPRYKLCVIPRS
Sequence of UniProt P33261 (whole entry, looked up): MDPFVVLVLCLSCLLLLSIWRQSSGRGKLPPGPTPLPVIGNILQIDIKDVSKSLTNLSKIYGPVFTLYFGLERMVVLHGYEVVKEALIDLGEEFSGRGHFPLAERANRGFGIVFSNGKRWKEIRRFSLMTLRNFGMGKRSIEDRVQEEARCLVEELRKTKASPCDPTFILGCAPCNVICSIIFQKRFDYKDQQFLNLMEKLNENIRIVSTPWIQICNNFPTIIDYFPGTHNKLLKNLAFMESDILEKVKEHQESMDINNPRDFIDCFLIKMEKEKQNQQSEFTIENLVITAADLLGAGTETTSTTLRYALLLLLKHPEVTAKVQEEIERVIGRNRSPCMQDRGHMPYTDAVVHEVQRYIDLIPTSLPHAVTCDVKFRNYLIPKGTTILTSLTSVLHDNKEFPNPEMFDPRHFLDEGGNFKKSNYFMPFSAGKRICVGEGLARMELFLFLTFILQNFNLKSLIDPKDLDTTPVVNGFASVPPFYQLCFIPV

COc1cccc(OC)c1-c1cc(C(=O)NC2(C(=O)O)C3CC4CC(C3)CC2C4)nn1-c1ccc(C(=O)N(C)CCCN(C)CCCN(C)C(=O)[C@H](CCCCNC(=O)[C@H](CC(C)C)NC(=O)C2OC2C(=O)O)NC(=O)CN2CCN(CC(=O)[O-])CCN(CC(=O)[O-])CCN(CC(=O)[O-])CC2)cc1C(C)C.[177Lu+3] (mixture of isomers) — tracer uptake (HT-29 tumour model; host not given, stomach; 72 h, tumour-bearing): 0.081 %ID/g
CC(C)(O)c1ncc([S@](N)(=O)=NC(=O)Nc2c3c(cc4c2CCC4)CCC3)s1 — total adverse events (healthy human; oral, 30 mg single dose, capsule formulation): 83%
COCC1CN(C2CCN(c3cc(OC)c(Nc4ncc(Br)c(Nc5ccc6c(c5P(C)(C)=O)OCCO6)n4)cc3C)CC2)C1 — AUC(0-inf) (EGFR-mutant NSCLC patients, plasma; oral, 90 mg single dose, geometric mean): 14200 ng·h/mL
C=C(NC(=O)c1csc(-c2nc3c(cc2O)-c2nc(cs2)C(=O)NC(C(C)O)C(=O)NC(=C(C)OC)c2nc(cs2)C(=O)NC2c4nc(cs4)C(=O)NC(COC(=O)c4c5c6c(cccc6n4O)COC(=O)C(OC4CC(C)(O)C(N(C)C)C(C)O4)C2OC5)c2nc-3cs2)n1)C(N)=O (stereo not drawn) — remaining activity (CYP2E1; enzyme activity, inhibitor, substrate cocktail; pooled human liver microsomes; up to 50 µM, pH 7.4): > 70%
O=C(O)c1cc(Br)c(O)c(Br)c1 — pIC50 (CYP2E1; p-nitrophenol hydroxylation, inhibitor; with additive 100 µM): 4.39
O=C1NC2(CC2)COc2ncc(F)cc2[C@H]2COCCN2c2ccn3ncc1c3n2 — polyploid cells (CHL; chromosomal aberration test; 5 µg/mL, 24 h, without S9): 0.3%
O=C1C2CC3CC1CC(C(=O)N1CCN(c4ccc([N+](=O)[O-])c5ncccc45)CC1)(C3)C2 — revertant fold increase (Salmonella typhimurium; Ames test; TA100; 0.13 µg/well, without S9; reference: vehicle): 0.8
CC(C)Cc1ccc(C(C)C(=O)N[C@@H](CCCCNC(=O)CCOCCOCCOCCOCCOCCOCCNC(=O)CN2CCN(CC(=O)[O-])CCN(CC(=O)[O-])CCN(CC(=O)[O-])CC2)C(=O)Nc2cccc3c(C(=O)NCC(=O)N4CC(F)(F)C[C@H]4C#N)ccnc23)cc1.[177Lu+3] (stereo partly drawn) — tracer uptake (U-87 MG tumour model; host not given, tumour; 48 h, tumour-bearing): 3.5 %ID/g
CCN(CC)CC#CCNc1ccnc2cc(Cl)ccc12 — revertants per well (Salmonella typhimurium; mini-Ames test; TA97a; 62.5 µg/well, without S9): 12
Nc1nc2nn[nH]c2c(=O)[nH]1 — translation activity (Trypanosoma cruzi; reporter mRNA translation, inhibitor, measured: Renilla luciferase mRNA; cell-free extract; concentration not given, test 3; reference: positive over negative control): 96.7%
N#C[C@@H]1CC(F)(F)CN1C(=O)CNC(=O)c1ccnc2c(NC(=O)[C@@H](N)CCCCNC(=O)CCOCCOCCOCCOCCOCCOCCNC(=O)CN3CCN(CC(=O)[O-])CCN(CC(=O)[O-])CCN(CC(=O)[O-])CC3)cccc12.[177Lu+3] — tracer uptake (U-87 MG tumour model; host not given, tumour; 24 h, tumour-bearing): 0.67 %ID/g
CNC(=O)C1CCCN(C(=O)C2CC3CCC2N3C(=O)[C@@H]2C[C@@H](O)CN2C(=O)NCc2cccc(Cl)c2F)C1 (mixture of isomers) — remaining activity (Cytochrome P450 2C19 (CYP2C19, Homo sapiens, UniProt P33261); enzyme activity, inhibitor, time-dependent inhibition; 50 µM, preincubated with NADPH; reference: negative control): 102%
COc1ccc2c(c1)C(C)(C)C(/C=C/C1=C(Oc3ccc(C(=O)NCCCCOc4cc(CN(Cc5ccccn5)Cc5ccccn5)cc(CN(Cc5ccccn5)Cc5ccccn5)c4)cc3)C(=C/C=C3/N(CCCCS(=O)(=O)[O-])c4ccc(OC)cc4C3(C)C)CCC1)=[N+]2CCCCS(=O)(=O)[O-].O=[N+]([O-])[O-].O=[N+]([O-])[O-].[99Tc+].[C-]#[O+].[C-]#[O+].[C-]#[O+].[Zn+2] — thyroid/trachea uptake (Staphylococcus aureus; biodistribution; BALB/c mouse, bacterial myositis; 12 h post-injection): 1.15 %ID/g
CCCC[C@H](NC(C)=O)C(=O)N[C@@H](CO)C(=O)N[C@H](C(=O)N1CCC[C@H]1C(=O)N[C@]1(C)CCCCCCC=CCCC[C@@](C)(C(=O)N[C@@H](Cc2ccccc2)C(=O)N[C@@H](CCCCN)C(=O)N[C@@H](CCCNC(=N)N)C(=O)N[C@@H](CC(C)C)C(=O)N[C@@H](CCC(N)=O)C(N)=O)NC(=O)[C@H](CCCNC(=N)N)NC(=O)[C@H](CCCC)NC(=O)[C@H](CC(C)C)NC(=O)[C@H](CCCNC(=N)N)NC(=O)[C@H](CCCNC(=N)N)NC(=O)[C@H](CCCNC(=N)N)NC1=O)[C@@H](C)O — remaining peptide (proteinase K; LC-MS; 25 µM, 123.0 min, pH 7.4): 80.7% and 76.2%
O=C(Nc1cnccc1-c1ccc([18F])nc1)c1ccnc(NC(=O)C2CC2)c1 — SUV (mice, transgenic, GSK-3β, early-stage, salivary gland; intravenous, dose not given, 120 min): 0.107
C=CC(=O)Nc1cc(Nc2nccc(-c3cn(C)c4ccccc34)n2)c(OCC(F)(F)F)nc1N(C)CCN(C)C — contribution to metabolism (CYP2E1; substrate, substrate depletion; 3 µM, 60 min, normalised to liver abundance): 2.25%
CC(NS(=O)(=O)c1ccc(CCC(=O)N2CCN(C)CC2)cc1)c1ccccc1 (stereo not drawn) — translation activity (Trypanosoma cruzi; reporter mRNA translation, inhibitor, measured: Renilla luciferase mRNA; cell-free extract; concentration not given, test 1; reference: positive over negative control): 107% and 108%
N#C[C@@H]1CC(F)(F)CN1C(=O)CNC(=O)c1ccnc2c(NC(=O)[C@H](CCCCNC(=O)CCOCCOCCOCCOCCOCCOCCNC(=O)CN3CCN(CC(=O)[O-])CCN(CC(=O)[O-])CCN(CC(=O)[O-])CC3)NC(=O)CCCc3ccc(I)cc3)cccc12.[177Lu+3] — tracer uptake (U-87 MG tumour model; host not given, pancreas; 24 h, tumour-bearing): 1.28 %ID/g
CN1CCCNC(=O)c2cccc(c2)C(=O)NCCCN(C)CCCNc2cccc3c2C(=O)c2cccc(c2C3=O)NCCC1 — viability (Ca9-22; CCK-8; 5 µM, 48 h; reference: untreated): 10.2%
COc1cccc(OC)c1-c1cc(C(=O)NC2(C(=O)O)C3CC4CC(C3)CC2C4)nn1-c1ccc(C(=O)N(C)CCOCCN(C)C(=O)[C@H](CCCCNC(=O)[C@H](CC(C)C)NC(=O)C2OC2C(=O)O)NC(=O)CN2CCN(CC(=O)[O-])CCN(CC(=O)[O-])CCN(CC(=O)[O-])CC2)cc1C(C)C.[177Lu+3] (mixture of isomers) — tracer uptake (HT-29 tumour model; host not given, bone; 24 h, tumour-bearing): 0.45 %ID/g
CC(C)OCCOCc1ccc(OCC(O)CN(N=O)C(C)C)cc1 (stereo not drawn) — revertant fold increase (Salmonella typhimurium; Ames test; TA1535; 5000 µg/plate, without metabolic activation; reference: solvent control): 0.6 fold

Some of these lines once more:
COCC1CN(C2CCN(c3cc(OC)c(Nc4ncc(Br)c(Nc5ccc6c(c5P(C)(C)=O)OCCO6)n4)cc3C)CC2)C1 — AUC(0-inf) (EGFR-mutant NSCLC patients, plasma; oral, 90 mg single dose, geometric mean): 14200 ng·h/mL
C=C(NC(=O)c1csc(-c2nc3c(cc2O)-c2nc(cs2)C(=O)NC(C(C)O)C(=O)NC(=C(C)OC)c2nc(cs2)C(=O)NC2c4nc(cs4)C(=O)NC(COC(=O)c4c5c6c(cccc6n4O)COC(=O)C(OC4CC(C)(O)C(N(C)C)C(C)O4)C2OC5)c2nc-3cs2)n1)C(N)=O (stereo not drawn) — remaining activity (CYP2E1; enzyme activity, inhibitor, substrate cocktail; pooled human liver microsomes; up to 50 µM, pH 7.4): > 70%
O=C(O)c1cc(Br)c(O)c(Br)c1 — pIC50 (CYP2E1; p-nitrophenol hydroxylation, inhibitor; with additive 100 µM): 4.39
